Published values pooled from the literature.
In brackets after ≈: the same amount, converted by molar mass.

CC(C)CC1NC(=O)C(C(=O)NC(C(=O)NC2C(=O)N3C2SC(C)(C)C3C(=O)O)c2ccccc2)=C1O (stereo not drawn) — MIC (Escherichia coli; broth microdilution; ATCC 25922 wild type; together with: clavulanic acid 6 µg/mL): 12.5 µg/mL
CNC(C)C1CCC(N)C(OC2C(N)CC(N)C(OC3OCC(C)(O)C(NC)C3O)C2O)O1 (stereo not drawn) — MIC (Salmonella enterica serovar Derby; broth microdilution; clinical isolate RKI-No 436/14): ≤ 0.5 µg/mL
CCCCCCCCCC(=O)N[C@@H](Cc1c[nH]c2ccccc12)C(=O)N[C@H](CC(N)=O)C(=O)N[C@@H](CC(=O)O)C(=O)N[C@@H]1C(=O)NCC(=O)N[C@@H](CCCN)C(=O)N[C@@H](CC(=O)O)C(=O)N[C@H](C)C(=O)N[C@@H](CC(=O)O)C(=O)NCC(=O)N[C@H](CO)C(=O)N[C@@H]([C@H](C)CC(=O)O)C(=O)N[C@@H](CC(=O)c2ccccc2N)C(=O)O[C@@H]1C — MIC (Staphylococcus aureus; SH1000; together with: sphingomyelin, molar ratio 2): 1 µg/mL
CNC(C)C1CCC(N)C(OC2C(N)CC(N)C(OC3OCC(C)(O)C(NC)C3O)C2O)O1 (stereo not drawn) — MIC (Staphylococcus cohnii; broth microdilution; L5; 18 h): > 128 µg/mL
CN[C@H](CC(C)C)C(=O)N[C@H]1C(=O)N[C@@H](CC(N)=O)C(=O)N[C@H]2C(=O)N[C@H]3C(=O)N[C@H](C(=O)N[C@H](C(=O)O)c4cc(O)cc(O)c4-c4cc3ccc4O)[C@H](O)c3ccc(c(Cl)c3)Oc3cc2cc(c3O[C@@H]2O[C@H](CO)[C@@H](O)[C@H](O)[C@H]2O[C@H]2C[C@](C)(N)[C@H](O)[C@H](C)O2)Oc2ccc(cc2Cl)[C@H]1O — MIC (Staphylococcus aureus; MRSA-11): 0.5 µg/mL (≈ 0.345 µM)
CCn1cc(C(=O)O)c(=O)c2cc(F)c(N3CCNCC3)cc21 — MIC (Proteus mirabilis; broth microdilution; 18 h): 0.5 µg/mL (≈ 1.57 µM)
CC1(C)S[C@@H]2[C@H](NC(=O)[C@H](N)c3ccccc3)C(=O)N2[C@H]1C(=O)O — MIC (Salmonella enterica serovar Infantis; broth microdilution; clinical isolate RKI-No 277/14): > 16 µg/mL
CS(=O)(=O)c1ccc([C@@H](O)[C@@H](CF)NC(=O)C(Cl)Cl)cc1 — MIC (Staphylococcus cohnii; broth microdilution; L5; 18 h): > 128 µg/mL
C[C@H]1COc2c(N3CCN(C)CC3)c(F)cc3c(=O)c(C(=O)O)cn1c23 — MIC (Proteus mirabilis; broth microdilution; 18 h): 0.5 µg/mL (≈ 1.38 µM)
CC1(C)S[C@@H]2[C@H](NC(=O)Cc3ccccc3)C(=O)N2[C@H]1C(=O)O — MIC (Staphylococcus cohnii; broth microdilution; L5; 18 h): 16 µg/mL
CO/N=C(\C(=O)N[C@@H]1C(=O)N2C(C(=O)O)=C(CSc3nc(=O)c(O)nn3C)CS[C@H]12)c1csc(N)n1 — MIC (Proteus mirabilis; broth microdilution; 18 h): 0.5 µg/mL (≈ 0.902 µM)
N=C(N)c1ccc(OCc2ccc(-c3ccccc3)cc2COc2ccc(C(=N)N)cc2)cc1 — MIC (Escherichia coli; BW25113; compound alone): > 200 µg/mL

A few entries again:
CC(C)CC1NC(=O)C(C(=O)NC(C(=O)NC2C(=O)N3C2SC(C)(C)C3C(=O)O)c2ccccc2)=C1O (stereo not drawn) — MIC (Escherichia coli; broth microdilution; ATCC 25922 wild type; together with: clavulanic acid 6 µg/mL): 12.5 µg/mL
